Measured values pooled from the literature.
Parts stem from different laboratories: compare values within a part only. Substitutions count along the parent as printed.

Sample 1 — target: CCNB1, cyclin fold, Cln2 fusion (human); technique: yeast growth competition, sequencing; medium: yeast; notes: strong parent motif; relative to: not given; direction: higher = stronger binding; starting sequence: viral docking peptide; YKVKRRLVFGADD
Substitution | normalised enrichment score
F9Q | 0.549
L7G | 0.287
R6C | 2.37
K4P | 1.73
V3T | 1.45
A11S | 4.03
V8S | 5.59
A11K | 3.3
R5V | 1.85
A11I | 3.53
R5D | 0.402
D12T | 2.77
G10N | 3.95
F9N | 0.396
K4Y | 2.21
F9S | 0.143
R5I | 0.884
R5C | 2.36
G10M | 3.14

Sample 2 — target: tungstate, free oxyanion; technique: microfluidic competitive inhibition; medium: in vitro, cell-free expressed; tested at: not given; direction: lower = stronger binding
Notes: derived from inhibition constants, unchanged parent 2230 nM
Starting sequence: PafA, mature enzyme, eGFP fusion (Elizabethkingia meningoseptica, UniProt Q9KJX5); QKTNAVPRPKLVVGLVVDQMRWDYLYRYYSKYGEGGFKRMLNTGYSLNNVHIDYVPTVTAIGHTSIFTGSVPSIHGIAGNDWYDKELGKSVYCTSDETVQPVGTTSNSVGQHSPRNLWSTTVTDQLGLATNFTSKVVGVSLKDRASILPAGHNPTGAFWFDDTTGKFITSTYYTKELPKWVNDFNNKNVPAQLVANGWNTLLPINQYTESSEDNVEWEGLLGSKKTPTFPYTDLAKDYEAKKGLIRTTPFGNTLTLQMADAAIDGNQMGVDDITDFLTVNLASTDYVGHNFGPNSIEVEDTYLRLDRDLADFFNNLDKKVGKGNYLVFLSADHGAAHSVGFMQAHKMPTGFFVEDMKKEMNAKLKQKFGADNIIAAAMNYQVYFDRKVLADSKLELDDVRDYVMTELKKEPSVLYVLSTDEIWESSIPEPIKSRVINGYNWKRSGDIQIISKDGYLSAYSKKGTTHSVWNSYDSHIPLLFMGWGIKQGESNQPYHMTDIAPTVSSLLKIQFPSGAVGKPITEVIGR
Substitution | oxyanion analog dissociation constant
P430V | 2.11 µM
D308V | 2.85 µM
M268V | 2.34 µM
Y207V | 1.95 µM
K89V | 2.5 µM
E239V | 2.06 µM
F184G | 1.2 µM
T247V | 1.77 µM
D53G | 2.02 µM
E359G | 2.03 µM
W217G | 475 nM
Q487V | 2.7 µM
E395G | 1.92 µM
Q257G | 2.28 µM
F37V | 1.73 µM
E522G | 2.3 µM
G219A | 2.08 µM
N199G | 1.99 µM
P493G | 2.18 µM
N372G | 2.04 µM
P501V | 2.29 µM
I520V | 2.39 µM
D453V | 1.3 µM
D237V | 1.3 µM
E406G | 2.3 µM

Sample 3 — technique: aptamer microarray, sandwich; form: DNA with 2'F-ANA; medium: in vitro; tested at: 200 nM; together with: Cy3 exosite-II aptamer, 400 nM; direction: higher = stronger binding; oligonucleotide: GGTTGGTGTGGTTGG
Target: Prothrombin, mature alpha-thrombin (F2, Homo sapiens, UniProt P00734)
Notes: whole 15-mer aptamer, many near background
Modification | mean fluorescence intensity [a.u.]
2'F-ANA at 1 2 3 4 7 8 10 13 | 55
2'F-ANA at 1 6 7 8 9 10 11 12 | 67.1
2'F-ANA at 1 2 4 6 9 10 13 14 | 47.9
2'F-ANA at 1 3 4 6 8 10 13 | 55.6
2'F-ANA at 1 2 3 5 6 8 9 11 13 14 15 | 50.6
2'F-ANA at 1 2 3 7 8 9 10 11 13 14 15 | 61.5
2'F-ANA at 2 3 5 7 9 11 12 | 179
2'F-ANA at 3 6 7 10 14 15 | 385

Single results of other studies
Substance | test | system | endpoint | result
nisin | lipid II binding, isothermal titration calorimetry | DOPC vesicles with lipid II | Kd | 70 nM
